# Measurements collected from several papers.
# Each line is one published result; not all experiments were run side by side.
# Organism: Staphylococcus aureus
SMILES,assay,system,setting,MIC
CC(C)C[C@@H](NC(=O)CNC(=O)[C@@H](CCCCN)NC(=O)[C@@H](CC(C)C)NC(=O)[C@@H](CCCCN)NC(=O)[C@@H](CCCNC(=N)N)NC(=O)[C@@H](CC(C)C)NC(=O)[C@@H](CC(C)C)NC(=O)[C@@H](CCCNC(=N)N)NC(=O)[C@H](N)CCCNC(=N)N)C(=O)N[C@H](CCCCN)C(=O)N[C@H](CCCCN)C(=O)N[C@H](Cc1ccc(O)cc1)C(=O)N[C@H](CC(C)C)C(=O)N[C@H](Cc1ccc(O)cc1)C(=O)N[C@H](Cc1ccccc1)C(=O)N[C@H](CCCCN)C(=O)N[C@H](CC(C)C)C(=O)N[C@H](CCC(N)=O)C(=O)N[C@H](CC(C)C)C(=O)N[C@H](CC(C)C)C(=O)N[C@H](CCCCN)C(=O)N[C@H](CCCCN)C(N)=O,broth microdilution,"KCTC 1621, Mueller-Hinton broth",no added salt,4 µM
c1ccc(CCOC2CCCc3c2[nH]c2ccccc32)cc1 (stereo not drawn),broth microdilution,,,> 16 µg/mL
CCCCCCCCCCCCCCCC(=O)NS(=O)(=O)OCC,,ATCC 33591 methicillin-resistant,,> 200 µg/mL
CC[C@H](C)[C@H](NC(=O)[C@H](CC(C)C)NC(=O)[C@H](CCCCN)NC(=O)[C@H](CC(C)C)NC(=O)CNC(=O)[C@@H](NC(=O)[C@H](CO)NC(=O)[C@@H](NC(=O)[C@@H](NC(=O)[C@H](CCC(N)=O)NC(=O)[C@H](Cc1c[nH]c2ccccc12)NC(=O)[C@H](CCCNC(=N)N)NC(=O)[C@H](CC(N)=O)NC(=O)[C@H](CCCNC(=N)N)NC(=O)[C@H](CCCNC(=N)N)NC(=O)[C@@H](NC(=O)[C@H](Cc1ccccc1)NC(=O)[C@H](CCCNC(=N)N)NC(=O)CNC(=O)[C@H](C)NC(=O)[C@H](CCCNC(=N)N)NC(=O)[C@H](CCCNC(=N)N)NC(=O)[C@H](CCCCN)NC(=O)[C@H](Cc1ccccc1)NC(=O)[C@H](CCCNC(=N)N)NC(=O)CNC(=O)[C@H](Cc1c[nH]c2ccccc12)NC(=O)[C@H](CCCNC(=N)N)NC(=O)CNC(=O)[C@H](CCCNC(=N)N)NC(=O)[C@@H](N)[C@@H](C)O)[C@@H](C)CC)[C@@H](C)CC)[C@@H](C)CC)[C@@H](C)O)C(=O)NCC(=O)O,broth microdilution,MRSA CMCC 43300,,0.6 µM
N=C(N)NCCC[C@H](NC(=O)[C@H](Cc1c[nH]c2ccccc12)NC(=O)[C@H](CCCNC(=N)N)NC(=O)[C@@H](N)Cc1c[nH]c2ccccc12)C(=O)N[C@@H](Cc1ccccc1)C(=O)N[C@@H](CCC(N)=O)C(=O)N[C@@H](Cc1ccccc1)C(=O)N[C@@H](CCC(N)=O)C(=O)N[C@@H](Cc1ccccc1)C(=O)N[C@@H](CCCCN)C(N)=O,"broth microdilution, optical density",ATCC 25923,,140 µM
CC[C@H](C)[C@H](NC(=O)[C@H](CC(C)C)NC(=O)[C@H](CCCNC(=N)N)NC(=O)[C@@H](N)CCCNC(=N)N)C(=O)N[C@@H](CCCNC(=N)N)C(=O)N[C@H](C(=O)N[C@@H](CC(C)C)C(=O)N[C@H](C(=O)NCC(=O)N1CCC[C@H]1C(=O)N[C@H](C(=O)N[C@H](C(=O)N[C@@H](Cc1ccc(O)cc1)C(=O)N[C@@H](CC(C)C)C(=O)N[C@@H](Cc1ccc(O)cc1)C(=O)N[C@@H](Cc1ccccc1)C(=O)N[C@@H](CCCCN)C(=O)N[C@@H](CC(C)C)C(=O)N[C@@H](CCC(N)=O)C(=O)N[C@@H](CC(C)C)C(=O)N[C@@H](CC(C)C)C(=O)N[C@@H](CCCCN)C(=O)N[C@@H](CCCCN)C(N)=O)[C@@H](C)CC)[C@@H](C)CC)[C@@H](C)O)[C@@H](C)O,,"CCARM 3090, methicillin-resistant, Mueller-Hinton broth",24 h,> 128 µM
Cc1ccc2[nH]c3c(c2c1)CCCC3NCCc1ccc(Br)cc1 (stereo not drawn),broth microdilution,SG511 daptomycin-resistant,,4 µg/mL
O=[N+]([O-])[O-].O=[N+]([O-])[O-].O=[N+]([O-])[O-].[Ga+3],broth dilution,Newman,"22 to 24 h, 37 °C",128 µg/mL
CC[C@H](C)[C@H](NC(=O)[C@H](Cc1ccccc1)NC(=O)[C@@H](NC(=O)[C@H](Cc1c[nH]c2ccccc12)NC(=O)[C@@H]1CCCN1C(=O)[C@@H](NC(=O)[C@H](C)N)[C@@H](C)CC)[C@@H](C)CC)C(=O)N[C@@H](Cc1ccccc1)C(=O)N[C@@H](CCCNC(=N)N)C(=O)N[C@@H](CC(C)C)C(=O)N[C@@H](CC(C)C)C(=O)N[C@@H](CCCNC(=N)N)C(=O)N[C@@H](CCCCN)C(=O)NCC(N)=O,broth microdilution,ATCC 35556,"18 h, 37 °C",1.88 µM
CC[C@H](C)CCCCC(=O)N[C@@H](CCN)C(=O)N[C@H](C(=O)N[C@@H](CCN)C(=O)N[C@H]1CCNC(=O)[C@H]([C@@H](C)O)NC(=O)[C@H](CCN)NC(=O)[C@H](CCN)NC(=O)[C@H](CC(C)C)NC(=O)[C@@H](Cc2ccccc2)NC(=O)[C@H](CCN)NC1=O)[C@@H](C)O,broth microdilution,ATCC 6538,24 h,≤ 50 µM
COC(=O)c1cc(-c2cccc(NC(=S)Nc3cc(C(F)(F)F)cc(C(F)(F)F)c3)c2)on1,,"ATCC 29213, CAMHB",16 to 18 h,16 µg/mL
Nc1nc(/C(=N/O)C(=O)N[C@@H]2C(=O)N3C(C(=O)O)=C(/C=C4\CCN([C@@H]5CCNC5)C4=O)CS[C@H]23)ns1,,"CRB, PBP4 overexpressor",,> 64 µg/mL
CC[C@H](C)[C@H](NC(=O)[C@H](CCCCN)NC(=O)[C@H](CCCCN)NC(=O)CNC(=O)[C@H](CCCCN)NC(=O)[C@H](CC(C)C)NC(=O)[C@H](CCCCN)NC(=O)[C@H](CCCNC(=N)N)NC(=O)[C@@H](NC(=O)[C@H](CC(C)C)NC(=O)[C@H](CCCNC(=N)N)NC(=O)[C@@H](N)CCCNC(=N)N)[C@@H](C)CC)C(=O)N[C@@H](Cc1ccc(O)cc1)C(=O)N[C@@H](CC(C)C)C(=O)N[C@@H](Cc1ccc(O)cc1)C(=O)N[C@@H](Cc1ccccc1)C(=O)N[C@@H](CCCCN)C(=O)N[C@@H](CC(C)C)C(=O)N[C@@H](CCC(N)=O)C(=O)N[C@@H](CC(C)C)C(=O)N[C@@H](CC(C)C)C(=O)N[C@@H](CCCCN)C(=O)N[C@@H](CCCCN)C(N)=O,broth microdilution,"KCTC 1621, Mueller-Hinton broth","24 h, 37 °C",8 µM
CC[C@H](C)[C@H](NC(=O)[C@H](CC(C)C)NC(=O)[C@H](CCCCN)NC(=O)[C@@H](NC(=O)[C@H](C)NC(=O)[C@H](CCC(=O)O)NC(=O)[C@H](Cc1c[nH]cn1)NC(=O)[C@@H](NC(=O)[C@H](CCCCN)NC(=O)[C@H](CCC(N)=O)NC(=O)[C@H](Cc1ccccc1)NC(=O)[C@@H](N)C(C)C)[C@@H](C)CC)[C@@H](C)CC)C(N)=O,broth microdilution,USA300 resistant,"18 h, 37 °C",> 128 µM
CC[C@H](C)[C@H](NC(=O)CNC(=O)[C@H](C)NC(=O)[C@@H](NC(=O)[C@@H](NC(=O)[C@@H](NC(=O)[C@H](CCCNC(=N)N)NC(=O)[C@@H](NC(=O)[C@@H](NC(=O)[C@@H](NC(=O)[C@@H]1CCCN1C(=O)[C@H](Cc1c[nH]c2ccccc12)NC(=O)[C@@H](NC(=O)[C@H](CCCNC(=N)N)NC(=O)[C@H](CCCCN)NC(=O)[C@@H](NC(=O)[C@@H](N)CCCNC(=N)N)[C@@H](C)CC)C(C)C)C(C)C)C(C)C)[C@@H](C)CC)[C@@H](C)O)C(C)C)C(C)C)C(=O)N[C@@H](CC(N)=O)C(=O)N[C@@H](CC(C)C)C(=O)N[C@@H](Cc1ccc(O)cc1)C(=O)N[C@@H](CCCNC(=N)N)C(=O)N[C@@H](C)C(=O)N[C@H](C(=O)N[C@@H](CCCCN)C(=O)N[C@@H](CCCNC(=N)N)C(=O)N[C@@H](CCCCN)C(=O)O)[C@@H](C)CC,broth microdilution,"ATCC 25923, Mueller-Hinton broth","16 to 20 h, 37 °C",0.354 µM
CC(C)C[C@H](NC(=O)CNC(=O)CNC(=O)CNC(=O)[C@H](Cc1ccc(O)cc1)NC(=O)[C@H](CC(C)C)NC(=O)[C@@H](NC(=O)CNC(=O)[C@H](Cc1ccc(O)cc1)NC(=O)[C@H](CCCCN)NC(=O)[C@H](CC(N)=O)NC(=O)[C@@H](NC(=O)[C@H](CCCCN)NC(=O)[C@H](Cc1c[nH]c2ccccc12)NC(=O)CN)[C@@H](C)O)[C@@H](C)O)C(=O)N[C@@H](CCCCN)C(=O)N[C@@H](CCCCN)C(=O)N[C@@H](CC(C)C)C(=O)N[C@@H](CC(C)C)C(=O)N[C@@H](CC(C)C)C(=O)N[C@@H](CC(C)C)C(=O)N[C@@H](CC(C)C)C(=O)N[C@@H](CCCCN)C(=O)N[C@@H](CCCCN)C(=O)N[C@@H](CC(C)C)C(=O)NCC(=O)O,,ATCC 25923,together with: 4 µM FeCl3,16 µg/mL
CCCCCCCC(=O)N[C@@H](CCCNC(=N)N)C(=O)N[C@@H](CCCNC(=N)N)C(=O)N[C@@H](CCCNC(=N)N)C(=O)N[C@@H](CCCNC(=N)N)C(=O)N[C@H](C(=O)N[C@@H](CC(C)C)C(=O)N[C@H](C(=O)N[C@@H](CCCCN)C(=O)N[C@@H](CCCCN)C(=O)N[C@H](C(=O)N[C@@H](CC(C)C)C(=O)N[C@@H](CCCCN)C(=O)N[C@@H](CC(C)C)C(=O)N[C@@H](CCCCN)C(=O)N[C@@H](CO)C(=O)N[C@@H](CO)C(=O)N[C@@H](C)C(=O)N[C@@H](Cc1ccc(O)cc1)C(N)=O)C(C)C)[C@@H](C)CC)[C@@H](C)CC,broth microdilution,ATCC 29213,highest value reported,64 µM
CC[C@H](C)[C@H](N)C(=O)N[C@@H](CC(C)C)C(=O)NCC(=O)N[C@H](CCCNC(=N)N)C(=O)N[C@H](C(=O)N[C@@H](Cc1c[nH]c2ccccc12)C(=O)N[C@@H](CCCCN)C(=O)NCC(=O)N[C@H](C(=O)N[C@@H](CCCCN)C(=O)N[C@@H](CC(=O)O)C(=O)N[C@H](C(=O)N[C@@H](CC(C)C)C(N)=O)[C@@H](C)CC)[C@@H](C)CC)[C@@H](C)CC,broth microdilution,ATCC 25923,together with: KCl 4.5 mM,12.5 µM

# Excerpt of the above:
SMILES,assay,system,setting,MIC
Nc1nc(/C(=N/O)C(=O)N[C@@H]2C(=O)N3C(C(=O)O)=C(/C=C4\CCN([C@@H]5CCNC5)C4=O)CS[C@H]23)ns1,,"CRB, PBP4 overexpressor",,> 64 µg/mL
